Assay results from different studies.
Compare with care: the assays were run in different laboratories.
Organism: Escherichia coli

SMILES	test	system	setting	MIC
COc1c(NC(=O)c2ccc(NC(=O)[C@H](Cc3c[nH]nn3)NC(=O)c3ccc(NC(=O)/C(C)=C/c4ccc(O)cc4)cc3)cc2)ccc(C(=O)Nc2ccc(C(=O)O)cc2)c1O	broth microdilution	ciprofloxacin-sensitive	–	0.125 µg/mL
CC[C@H]1OC(=O)[C@H](C)[C@@H](OC(=O)Cc2cccc3ccccc23)[C@H](C)[C@@H](O[C@@H]2O[C@H](C)C[C@H](N(C)C)[C@H]2O)[C@](C)(OC)C[C@@H](C)C(=O)[C@H](C)[C@@H](O)[C@]1(C)O	microbial growth	ATCC25922	–	> 32 µg/mL
C=C[C@H]1CC1(NC(=O)C12CC(NC(=O)c3ccc(C#N)cc3)(C1)C2)C(=O)Nc1ccc(C(=O)Nc2ccc(C(=O)Nc3ccc(C(=O)O)cc3)c(O)c2OC(C)C)cc1 (some centres unmarked)	–	BW25113 WT	–	0.04 µg/mL
CC[C@H]1OC(=O)[C@H](C)[C@@H](OC(=O)c2ccc(N)cc2)[C@H](C)[C@@H](O[C@@H]2O[C@H](C)C[C@H](N(C)C)[C@H]2O)[C@](C)(OC)C[C@@H](C)C(=O)[C@H](C)[C@@H](O)[C@]1(C)O	microbial growth	ATCC25922	–	> 32 µg/mL
CC[C@H](C)[C@H](NC(=O)[C@H](CCN)NC(=O)CCCCCCCCCCCNC(=O)CCCCCOC(=O)c1cn(C2CC2)c2cc(N3CCNCC3)c(F)cc2c1=O)C(=O)N[C@@H](CCN)C(=O)N[C@H](Cc1ccccc1)C(=O)N[C@@H](CC(C)C)C(=O)N[C@@H](CCN)C(=O)N[C@@H](C(=O)N[C@@H](CC(C)C)C(=O)N[C@@H](CO)C(N)=O)C(C)C	–	–	–	2.52 µg/mL
CCCCCCn1cc[n+](CCCCOc2cc(OCCCC[n+]3ccn(CCCCCC)c3)cc(OCCCC[n+]3ccn(CCCCCC)c3)c2)c1.[Br-].[Br-].[Br-]	–	MC4100	–	4 µM
CCCCCCCCCCCCCCCCCCn1cc(CN(CCC(=O)NCCN(CCC(=O)NCCN(CCC(=O)NCCN(C)C)CCC(=O)NCCN(C)C)CCC(=O)NCCN(CCC(=O)NCCN(C)C)CCC(=O)NCCN(C)C)CCC(=O)NCCN(CCC(=O)NCCN(CCC(=O)NCCN(C)C)CCC(=O)NCCN(C)C)CCC(=O)NCCN(CCC(=O)NCCN(C)C)CCC(=O)NCCN(C)C)nn1	–	AR Bank 0349, LB broth	18 h	6 µg/mL
COc1ccc2ccc(O)c(/C=N/[C@H]3CCCC[C@H]3/N=C/c3cccc(C)c3O)c2c1	microbial growth, broth dilution	–	clinical isolate	> 40 µM
CC[C@H](C)[C@H](NC(=O)[C@@H](CCCNC(=N)N)NC(=O)[C@H](CCCNC(=N)N)NC(=O)[C@@H]1CCCN1C(=O)[C@@H]1CCCN1C(=O)[C@H](CCCNC(=N)N)NC(=O)[C@@H]1CCCN1C(=O)[C@H](CCCNC(=N)N)NC(=O)[C@@H]1CCCN1C(=O)[C@H](CC(C)C)NC(=O)[C@H](Cc1ccc(O)cc1)NC(=O)[C@@H]1CCCN1C(=O)[C@H](CCCCN)NC(=O)[C@H](CCCCN)NC(=O)[C@H](CC(=O)O)NC(=O)[C@@H](N)C(C)C)C(=O)N[C@@H](Cc1ccc(O)cc1)C(=O)N[C@@H](CC(N)=O)C(=O)N[C@H](CCCNC(=N)N)C(N)=O	broth microdilution	ATCC 25922	18 h, 37 °C, 25% MHB2	16 µg/mL
COc1cc(C(=O)O)ccc1NC(=O)c1ccc(NC(=O)c2ccc(NC(=O)[C@H](Cc3c[nH]nn3)NC(=O)c3ccc(NC(=O)/C(C)=C/c4ccc(O)cc4)cc3)cc2)cc1	broth microdilution	BW25113	–	0.063 µg/mL
COc1c(C)c(OS(=O)(=O)c2ccccc2)c(C)c(OS(=O)(=O)c2ccccc2)c1C(=O)/C=C/c1ccccc1	microbial growth, broth dilution	ATCC25922	–	5000 µg/mL
c1ccc(CN2CCOCCOCCN(CCCCCCCCCCCCCCN3CCOCCOCCN(CCCCCCCCCCCCCCN4CCOCCOCCN(Cc5ccccc5)CCOCCOCC4)CCOCCOCC3)CCOCCOCC2)cc1	–	tetracycline-resistant (pBR322)	–	2 µM
CC(C)(O/N=C(\C(=O)N[C@@H]1C(=O)N(OS(=O)(=O)O)C1(C)C)c1nsc(N)n1)C(=O)O	agar dilution	16-1, ESBL-producing	–	16 µg/mL
CC(C)C[C@@H]1NC(=O)[C@@H](CC(C)C)NC(=O)[C@H](CCN)NC(=O)[C@@H](NC(=O)[C@H](CCN)NC(=O)[C@@H](NC(=O)CN=[N+]=[N-])[C@@H](C)O)CCNC(=O)[C@H]([C@@H](C)O)NC(=O)[C@H](CCN)NC(=O)[C@H](CCN)NC1=O	broth microdilution	ATCC 25922	18 to 20 h	64 µg/mL
C[C@H](CS)C(=O)Nc1cccc(-c2nn[nH]n2)c1	broth microdilution	DH5α pET28-lacUV5 control	100 µM	> 64 µg/mL
CC[C@H]1OC(=O)[C@H](C)C(=O)[C@H](C)[C@@H](O[C@@H]2O[C@H](C)C[C@H](N(C)C)[C@H]2O)[C@](C)(OC)C[C@@H](C)C(=O)[C@H](C)[C@H]2N(CCCCn3cnc(-c4cccnc4)c3)C(=O)O[C@]12C	microbial growth	ATCC25922	–	> 32 µg/mL
COc1cc(C(=O)O)ccc1NC(=O)c1ccc(NC(=O)c2ccc(NC(=O)[C@H](Cc3c[nH]nn3)NC(=O)c3ccc(NC(=O)/C(C)=C/c4ccc(O)cc4)cc3)cc2)cc1O	broth microdilution	BW25113	–	0.125 µg/mL
CC(C(=O)O)c1n[nH]c2nc(N)[nH]c(=O)c2c1=O (centres unmarked)	microbial growth, broth dilution	BW25113	18 h	> 100 µg/mL

SMILES	test	system	setting	MIC
CCCCCCn1cc[n+](CCCCCCCCCCOc2cc(OCCCCCCCCCC[n+]3ccn(CCCCCC)c3)cc(OCCCCCCCCCC[n+]3ccn(CCCCCC)c3)c2)c1.[Br-].[Br-].[Br-]	–	MC4100	–	8 µM
C/C(=C\c1ccc(O)cc1)C(=O)Nc1ccc(C(=O)N[C@@H](Cc2c[nH]nn2)C(=O)Nc2ccc(C(=O)Nc3ccc(C(=O)Nc4ccc(C(=O)O)cc4)c(O)c3)cc2)cc1	broth microdilution	DSM 1116	–	0.25 µg/mL
CC[C@H](C)[C@H](NC(=O)[C@H](CC(N)=O)NC(=O)[C@H](CCC(N)=O)NC(=O)[C@H](CC(C)C)NC(=O)[C@@H](NC(=O)[C@H](Cc1ccccc1)NC(=O)[C@H](Cc1ccc(O)cc1)NC(=O)[C@H](CO)NC(=O)[C@H](CS)NC(=O)[C@H](CC(C)C)NC(=O)[C@H](CCCCN)NC(=O)[C@H](CCCCN)NC(=O)[C@H](CCCNC(=N)N)NC(=O)[C@H](CCCNC(=N)N)NC(=O)[C@H](CS)NC(=O)[C@H](CCCNC(=N)N)NC(=O)[C@H](CCCCN)NC(=O)[C@H](CCCNC(=N)N)NC(=O)[C@H](CCCCN)NC(=O)[C@H](Cc1ccccc1)NC(=O)[C@@H](N)CCCNC(=N)N)[C@@H](C)CC)C(=O)N[C@@H](CC(N)=O)C(=O)N[C@@H](Cc1ccccc1)C(=O)N[C@@H](CCCNC(=N)N)C(=O)N[C@@H](CC(C)C)C(=O)N[C@@H](CCCNC(=N)N)C(=O)N[C@@H](CCCCN)C(=O)NCC(=O)N[C@@H](CCCCN)C(=O)O	broth microdilution	ATCC 25922	16 h, 37 °C, cation-adjusted Mueller-Hinton broth	64 µg/mL
C/C(=C\c1ccc(O)cc1)C(=O)Nc1ccc(C(=O)N[C@@H](Cc2c[nH]nn2)C(=O)Nc2ccc(C(=O)Nc3ccc(C(=O)Nc4ccc(C(=O)O)c(O)c4)c(O)c3)cc2)cc1	broth microdilution	BW25113	–	0.063 µg/mL
CCCCCCCCn1cc[n+](CCCCCCOc2cc(OCCCCCC[n+]3ccn(CCCCCCCC)c3)cc(OCCCCCC[n+]3ccn(CCCCCCCC)c3)c2)c1.[Br-].[Br-].[Br-]	–	MC4100	–	1 µM
COc1c(NC(=O)c2ccc(NC(=O)c3ccc(NC(=O)[C@H](Cc4c[nH]nn4)NC(=O)c4ccc(NC(=O)/C(C)=C/c5ccc(O)cc5)cc4)cc3)cc2)ccc(C(=O)O)c1O	broth microdilution	ciprofloxacin-resistant	–	0.5 µg/mL
CC1(C)C(NC(=O)C(=NOCC(=O)N2CC3CCCC3C2C(=O)O)c2csc(N)n2)C(=O)N1OS(=O)(=O)O (centres unmarked)	agar dilution	16-1, ESBL-producing	–	1 µg/mL
COc1ccc2ccc(O)c(/C=N/[C@H]3CCCC[C@H]3/N=C/c3cc(C(C)(C)C)ccc3O)c2c1	microbial growth, broth dilution	–	clinical isolate	> 40 µM
COc1ccc(/N=N/C(=S)N2CCN(C)CC2)cc1	microbial growth, broth dilution	ATCC 8739, ATCC8739	24 h	> 50 µM
CC[C@H]1OC(=O)[C@H](C)[C@@H](OC(=O)Cc2ccccc2Cl)[C@H](C)[C@@H](O[C@@H]2O[C@H](C)C[C@H](N(C)C)[C@H]2O)[C@](C)(OC)C[C@@H](C)C(=O)[C@H](C)[C@@H](O)[C@]1(C)O	microbial growth	ATCC25922	–	> 32 µg/mL
CCCCCCCCCCCC(=O)Oc1c(C)c(OC)c2c(c1C)OC(=O)[C@@H](CCCCCCCCCC)[C@]2(O)/C=C/c1ccccc1 (relative stereo)	microbial growth, broth dilution	ATCC25922	–	5000 µg/mL
CCC(CC)c1cc(CCN2CCCNCC2)nc(-c2cccnc2)n1	microbial growth, broth dilution	ATCC25922	–	> 64 µg/mL
COc1ccc2ccc(O)c(/C=N/[C@H]3CCCC[C@H]3/N=C/c3ccc(C)cc3O)c2c1	microbial growth, broth dilution	–	–	> 40 µM
CCOc1c(NC(=O)c2ccc(NC(=O)[C@H](Cc3c[nH]nn3)NC(=O)c3ccc(NC(=O)/C(C)=C/c4ccc(O)cc4)cc3)cc2)ccc(C(=O)Nc2ccc(C(=O)O)c(O)c2OC)c1O	broth microdilution	BW25113	–	0.016 µg/mL
Cn1nc(COC(=O)c2ccccc2)c(=O)c2c(=O)[nH]c(N)nc21	microbial growth, broth dilution	BW25113	18 h	50 µg/mL
COc1c(NC(=O)c2ccc(NC(=O)c3ccc(NC(=O)[C@H](Cc4c[nH]nn4)NC(=O)c4ccc(NC(=O)/C(C)=C/c5ccc(O)cc5)cc4)cc3)c(OC)c2O)ccc(C(=O)O)c1O	microbial growth, broth dilution	DSM1116	–	0.016 µg/mL
C#CCNC(=O)[C@H]1NC(=O)[C@H]2NC(=O)[C@H](NC(=O)[C@@H]3NC(=O)[C@H](CC(N)=O)NC(=O)[C@H](NC(=O)[C@@H](CC(C)C)NC)[C@H](O)c4ccc(c(Cl)c4)Oc4cc3cc(c4O[C@@H]3O[C@H](CO)[C@@H](O)[C@H](O)[C@H]3O[C@H]3C[C@](C)(N)[C@H](O)[C@H](C)O3)Oc3ccc(cc3Cl)[C@H]2O)c2ccc(O)c(c2)-c2c(O)cc(O)cc21	broth microdilution	ATCC 35218, cation-adjusted Mueller-Hinton broth	18 to 20 h, 37 °C, 0.002% polysorbate 80	32 µg/mL

For quick reference, copied from above:
SMILES	test	system	setting	MIC
CC(C)(O/N=C(\C(=O)N[C@@H]1C(=O)N(OS(=O)(=O)O)C1(C)C)c1nsc(N)n1)C(=O)O	agar dilution	16-1, ESBL-producing	–	16 µg/mL
COc1cc(C(=O)O)ccc1NC(=O)c1ccc(NC(=O)c2ccc(NC(=O)[C@H](Cc3c[nH]nn3)NC(=O)c3ccc(NC(=O)/C(C)=C/c4ccc(O)cc4)cc3)cc2)cc1O	broth microdilution	BW25113	–	0.125 µg/mL
COc1ccc2ccc(O)c(/C=N/[C@H]3CCCC[C@H]3/N=C/c3ccc(C)cc3O)c2c1	microbial growth, broth dilution	–	–	> 40 µM
CCOc1c(NC(=O)c2ccc(NC(=O)[C@H](Cc3c[nH]nn3)NC(=O)c3ccc(NC(=O)/C(C)=C/c4ccc(O)cc4)cc3)cc2)ccc(C(=O)Nc2ccc(C(=O)O)c(O)c2OC)c1O	broth microdilution	BW25113	–	0.016 µg/mL
